Measurements collected from several papers.
Lines come from different studies, so protocols differ. ± marks the error that the study gave.

For `CC[C@H](C)[C@H](NC(=O)[C@H](C)NC(=O)[C@H](CCCCN)NC(=O)[C@H](CC(N)=O)NC(=O)[C@@H](NC(=O)[C@H](CCCCN)NC(=O)[C@H](CCCCN)NC(=O)[C@H](CC(C)C)NC(=O)[C@@H](NC(=O)[C@H](CCCCN)NC(=O)CNC(=O)[C@@H](NC(=O)CNC(=O)[C@H](CC(N)=O)NC(=O)[C@@H](NC(=O)CNC(=O)[C@H](Cc1ccc(O)cc1)NC(=O)[C@H](CCCNC(=N)N)NC(=O)[C@H](CCSC)NC(=O)[C@@H](NC(=O)[C@H](CCSC)NC(=O)[C@H](C)NC(=O)[C@H](CC(C)C)NC(=O)[C@H](CCC(N)=O)NC(=O)[C@H](CCCCN)NC(=O)[C@H](CCCCN)NC(=O)[C@@H](NC(=O)[C@@H](N)CCCNC(=N)N)[C@@H](C)O)C(C)C)C(C)C)C(C)C)[C@@H](C)CC)[C@@H](C)CC)C(=O)N[C@H](C(=O)N[C@@H](CO)C(=O)N[C@@H](CCCCN)C(=O)N[C@@H](CCCCN)C(=O)N[C@@H](CC(N)=O)C(=O)N[C@@H](CCCCN)C(=O)N[C@@H](CC(=O)O)C(=O)N[C@H](C(=O)N[C@H](C(=O)N[C@H](C(=O)N[C@H](C(=O)N[C@@H](C)C(=O)N[C@@H](CC(N)=O)C(=O)N[C@@H](C)C(=O)N[C@H](C(=O)N[C@@H](Cc1ccccc1)C(=O)N[C@H](C(=O)N[C@@H](CCCCN)C(=O)O)C(C)C)C(C)C)C(C)C)[C@@H](C)O)C(C)C)[C@@H](C)CC)C(C)C`, the CC50 was 56.5 µM (THP-1, PMA-differentiated; cell viability, MTT).
`C#C[C@@]1(O)[C@@H](CO)O[C@@H](n2cc(Br)c3c(N)ncnc32)[C@@H]1O` has a CC50 of 82.6 µM (Malme-3M; SRB; NCI-60 screen).
`CN(C)c1ccc(N(Cc2cc(Cl)cs2)C(=O)Cc2cncc3cccc(O)c23)cc1` has a CC50 of 18.2 µM (Calu-3; 48 h).
For `COc1ccc(-c2nn3c(Cn4c(-c5ccccn5)nc5ccccc54)nnc3s2)cc1OC`, the CC50 was over 100 µM (HEp-2; cytotoxicity).
With `CC[C@H](C)[C@H](NC(=O)[C@H](CCCNC(=N)N)NC(=O)[C@H](CCCCN)NC(=O)[C@H](CCC(N)=O)NC(=O)[C@H](CCCNC(=N)N)NC(=O)[C@H](CCCNC(=N)N)NC(=O)[C@H](Cc1c[nH]cn1)NC(=O)[C@H](CC(C)C)NC(=O)[C@H](CC(C)C)NC(=O)[C@H](CCCNC(=N)N)NC(=O)[C@H](CC(C)C)NC(=O)CN)C(=O)N[C@H](C(=O)NCC(=O)NCC(=O)N[C@@H](CCCCN)C(=O)N[C@@H](CC(N)=O)C(=O)N[C@@H](CO)C(=O)N[C@@H](CC(C)C)C(=O)N[C@@H](CCCNC(=N)N)C(=O)NCC(=O)NCC(=O)N[C@@H](Cc1c[nH]c2ccccc12)C(=O)N1CCC[C@H]1C(=O)N[C@@H](Cc1c[nH]c2ccccc12)C(=O)N[C@@H](CCC(N)=O)C(=O)N[C@H](C(=O)N[C@@H](CO)C(=O)N[C@@H](CC(C)C)C(=O)N[C@@H](CCCNC(=N)N)C(=O)N[C@@H](CC(C)C)C(=O)N[C@@H](CCCCN)C(=O)O)C(C)C)[C@@H](C)CC` the CC50 was 33.8 µM (THP-1, PMA-differentiated; cell viability, MTT).
`CCC(CC)COC(=O)[C@H](C)N[P@](=O)(OC[C@H]1O[C@@](C#N)(c2ccc3c(N)ncnn23)[C@H](O)[C@@H]1O)Oc1ccccc1` gave a CC50 of 9 ± 4.7 µM (CEM).
For `COc1ccc(-c2nn3c(Cn4nnc5ccccc54)nnc3s2)cc1OC`, the CC50 was over 100 µM (HEp-2; cytotoxicity).
For `CC[C@H](C)[C@H](NC(=O)[C@H](Cc1c[nH]cn1)NC(=O)[C@@H](NC(=O)[C@@H](NC(=O)[C@H](CC(C)C)NC(=O)[C@H](CCCCN)NC(=O)[C@H](CCCCN)NC(=O)[C@@H]1CCCN1C(=O)[C@H](CC(C)C)NC(=O)[C@H](CC(C)C)NC(=O)[C@H](CCC(N)=O)NC(=O)[C@@H](NC(=O)CNC(=O)[C@H](CC(C)C)NC(=O)[C@H](CCC(N)=O)NC(=O)[C@H](CC(C)C)NC(=O)[C@H](CCCNC(=N)N)NC(=O)[C@H](CC(N)=O)NC(=O)[C@H](CCCCN)NC(=O)[C@H](CC(N)=O)NC(=O)[C@H](CCCNC(=N)N)NC(=O)[C@@H](NC(=O)[C@H](CO)NC(=O)[C@H](Cc1ccccc1)NC(=O)[C@H](CC(C)C)NC(=O)[C@H](Cc1ccccc1)NC(=O)[C@H](C)NC(=O)[C@H](CC(N)=O)NC(=O)[C@H](CC(N)=O)NC(=O)[C@@H](NC(=O)[C@H](CCCNC(=N)N)NC(=O)[C@@H](N)Cc1c[nH]cn1)C(C)C)[C@@H](C)CC)C(C)C)C(C)C)C(C)C)C(=O)N[C@@H](CCCNC(=N)N)C(=O)NCC(=O)N[C@@H](CCCCN)C(=O)N[C@@H](CCC(N)=O)C(=O)N1CCC[C@H]1C(=O)N[C@@H](C)C(=O)N[C@H](C(=O)N[C@@H](Cc1ccccc1)C(=O)O)C(C)C`, the CC50 was 141 µM (THP-1, PMA-differentiated; cell viability, MTT).
With `CC[C@H]1CN2CCc3cc(OC)c(OC)cc3[C@@H]2C[C@@H]1C[C@H]1NCCc2cc(OC)c(OC)cc21` the CC50 was 0.23 µM (THP-1 PMA-differentiated macrophages; CellTiter-Glo; 72 h, host cell cytotoxicity).
For `Cc1ccc(-c2nc(C[S+]([O-])CC(=O)N3CCN(c4ccc(Cl)cc4)CC3)c(C)o2)cc1` (stereo not drawn), the maximum response was -17% (Vero-E6; CellTiter-Glo ATP; 72 h, first round 5-point; baseline: DMSO 0%, hyamine -100%, more negative, more toxic).
The CC50 of `COc1cccc(-c2nn3c(Cn4nnc5ccccc54)nnc3s2)c1` is reported as over 100 µM (HEp-2; cytotoxicity).
`CC[C@H](C)[C@H](NC(=O)[C@H](CO)NC(=O)[C@H](CC(N)=O)NC(=O)[C@H](CC(C)C)NC(=O)[C@H](CCCNC(=N)N)NC(=O)[C@H](CC(N)=O)NC(=O)[C@H](CS)NC(=O)[C@H](CCCCN)NC(=O)[C@@H](NC(=O)[C@H](CCCCN)NC(=O)[C@H](CC(C)C)NC(=O)[C@H](CC(N)=O)NC(=O)[C@@H](NC(=O)[C@@H]1CCCN1C(=O)[C@@H]1CCCN1C(=O)[C@H](Cc1ccc(O)cc1)NC(=O)[C@H](CCCCN)NC(=O)[C@H](CC(N)=O)NC(=O)[C@@H](NC(=O)[C@H](C)NC(=O)[C@H](CCCNC(=N)N)NC(=O)[C@H](CCCNC(=N)N)NC(=O)[C@@H](NC(=O)[C@H](CO)NC(=O)[C@H](CC(N)=O)NC(=O)[C@@H](NC(=O)[C@H](Cc1ccccc1)NC(=O)[C@H](CO)NC(=O)[C@H](CCCCN)NC(=O)[C@@H](NC(=O)[C@H](Cc1ccccc1)NC(=O)[C@H](CCCCN)NC(=O)[C@@H](N)C(C)C)C(C)C)[C@@H](C)CC)[C@@H](C)CC)[C@@H](C)CC)[C@@H](C)CC)[C@@H](C)CC)C(=O)O` gave a CC50 of 14.7 µM (THP-1, PMA-differentiated; cell viability, MTT).
`CCCCN(C)CCCNC(=O)c1ccc2nc(N3CCCCC3)sc2c1` gave a cytotoxicity efficacy of 0% (Vero-E6; CellTiter-Glo ATP; concentration not given, 72 h, retest 8-point duplicates; baseline: DMSO 0%, hyamine -100%, more negative, more toxic).
The CC50 of `Cc1nc2ccccc2n1Cc1nnc2sc(-c3cncc(Br)c3)nn12` is reported as 40 µM (HEp-2; cytotoxicity).
The CC50 of `CC(C)C[C@H](NC(=O)OCc1ccccc1)C(=O)N[C@H](C=O)C[C@@H]1CCCNC1=O` is reported as over 100 µM (CEM; cytotoxicity).
With `O=C(Nc1ccc([N+](=O)[O-])cc1Cl)c1cc(Cl)ccc1O` the CC50 was 3.2 µM (Vero E6 cells; cell viability; 72 h).
For `CC(C)(C)c1ccc(N(Cc2cc(Cl)cs2)C(=O)Cc2cncc3ccccc23)cc1`, the CC50 was 33.4 µM (Calu-3; 48 h).
The CC50 of `O=C1Nc2ccc3ncsc3c2/C1=C/c1c[nH]cn1` is reported as 1.13 µM (THP-1; 24 h).
The CC50 of `CC(C)(C)c1ccc(-c2nn3c(Cn4cnc5ccccc54)nnc3s2)cc1` is reported as 26.8 µM (HEp-2; cytotoxicity).
With `CC[C@H](C)[C@H](NC(=O)[C@H](CCCNC(=N)N)NC(=O)[C@@H]1CCCN1C(=O)[C@H](CCCNC(=N)N)NC(=O)[C@@H](N)CCCNC(=N)N)C(=O)N[C@@H](Cc1c[nH]cn1)C(=O)N[C@@H](Cc1ccccc1)C(=O)N[C@@H](CCCNC(=N)N)C(=O)N[C@@H](Cc1ccccc1)C(=O)N1CCC[C@H]1C(=O)N[C@@H](CC(N)=O)C(=O)N[C@@H](CCCNC(=N)N)C(=O)N1CCC[C@H]1C(=O)N[C@@H](Cc1ccccc1)C(=O)N[C@H](C(=O)N1CCC[C@H]1C(=O)N[C@@H](CO)C(=O)N[C@@H](CCCNC(=N)N)C(=O)N[C@@H](CS)C(=O)N[C@@H](CC(N)=O)C(=O)N[C@@H](Cc1c[nH]cn1)C(=O)N[C@@H](CCCNC(=N)N)C(=O)N[C@@H](Cc1ccccc1)C(=O)N1CCC[C@H]1C(=O)N[C@@H](Cc1ccccc1)C(=O)N[C@@H](CCC(N)=O)C(=O)N1CCC[C@H]1C(=O)N[C@@H](Cc1ccccc1)C(=O)N[C@@H](Cc1ccc(O)cc1)C(=O)N[C@@H](Cc1c[nH]c2ccccc12)C(=O)N1CCC[C@H]1C(=O)N[C@@H](Cc1c[nH]cn1)C(=O)N[C@@H](CCCNC(=N)N)C(=O)N[C@@H](Cc1ccc(O)cc1)C(=O)N[C@@H](CC(C)C)C(=O)N[C@H](C(=O)N[C@@H](Cc1ccc(O)cc1)C(=O)N[C@@H](CCCNC(=N)N)C(=O)N[C@@H](Cc1ccc(O)cc1)C(=O)N[C@@H](Cc1ccccc1)C(=O)N1CCC[C@H]1C(=O)N[C@@H](CCCNC(=N)N)C(=O)N[C@@H](CCCNC(=N)N)C(=O)N[C@@H](CCCNC(=N)N)C(=O)N[C@@H](CC(C)C)C(=O)N[C@@H](CCC(N)=O)C(=O)N[C@@H](CCCNC(=N)N)C(=O)O)[C@@H](C)O)C(C)C` the CC50 was 51.7 µM (THP-1, PMA-differentiated; cell viability, MTT).
For `CNC(=O)[C@@]12C[C@@H]1[C@@H](n1cnc3c(NCc4cccc(Cl)c4)nc(C#Cc4ccc(F)c(F)c4)nc31)[C@H](O)[C@@H]2O`, the CC50 was 32 µM (monkey cell line; visual).
